Measured values from different studies.
Parts stem from different laboratories: compare values within a part only.

Sample 1
Target: Ras GTPase-activating protein-binding protein 1, full length (G3BP1, Homo sapiens, UniProt Q13283)
UniProt Q13283, sequence (whole entry, looked up): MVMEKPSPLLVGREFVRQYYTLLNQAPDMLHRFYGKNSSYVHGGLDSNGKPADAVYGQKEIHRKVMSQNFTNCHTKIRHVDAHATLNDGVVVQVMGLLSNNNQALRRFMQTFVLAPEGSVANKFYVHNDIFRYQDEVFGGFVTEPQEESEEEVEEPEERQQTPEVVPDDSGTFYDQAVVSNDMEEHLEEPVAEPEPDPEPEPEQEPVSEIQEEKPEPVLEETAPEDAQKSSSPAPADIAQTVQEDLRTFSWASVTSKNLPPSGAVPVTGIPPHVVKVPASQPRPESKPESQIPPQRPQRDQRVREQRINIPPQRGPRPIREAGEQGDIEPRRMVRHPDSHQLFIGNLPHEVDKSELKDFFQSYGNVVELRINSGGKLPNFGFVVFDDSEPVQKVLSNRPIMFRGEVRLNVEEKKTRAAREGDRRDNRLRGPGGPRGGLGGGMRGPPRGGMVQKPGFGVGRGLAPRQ
Technique: RNA Bind-n-Seq
Molecule type: RNA
Sample: in vitro
Tested at: 200 nM
Notes: whole 134-nt RNA, ends assumed
With: 150 mM KCl
Relative to: input library
Reading: higher = stronger binding
Constant ends, left off below: GGGAGUUCUACAGUCCGACGAUC … UGGAAUUCUCGGGUGUCAAGG
Oligonucleotide | log2 enrichment
UGCCGUGCCGGGUGGACGGUCUGCUCGCCUGUCUGCGUGACGAAACUGAGGCACAAAGACGCGCUAUGCCAGCGGCGGGUAUAGCAAGGG | -0.506
UCAAGUCCUGUGCUACACAUCGUAUGUACCGAAUCGGGAAAGGGUUUGGGAGGGAAAGUAUUAUGUUACGCCGUUCGGAUCUGCACUUCC | 1.16
UGGGAGACGAUCGCGAUGAACACGGUGCUGUCGCGGGCGAACUCACUGUUCGCCUUCUCGCUGAGCGUGAUGGCGGCGCUCACCUUCGGC | -1.84
UCAAGUCCUGUGCUACACAUCGUAUGUACCGAAUCGGAGGAAAAAGGAAAAAGGAAAGUAUUAUGUUACGCCGUUCGGAUCUGCACUUCC | -1.05
AAGUCCUGUGCUACACAUCGUAUGUACCGAAUCGGGGAGGGGUGGGGUUUUUGGGGAAAGUAUUAUGUUACGCCGUUCGGAUCUGCACUU | 0.415
GUCCUGUGCUACACAUCGUAUGUACCGAAUCGGGGUUUUGGGGUUUUGGGUUUUGGGGAAAGUAUUAUGUUACGCCGUUCGGAUCUGCAC | 0.234
CCUCAAGUCCUGUGCUACACAUCGUAUGUACCGAAUCGGAGGGGAGGGAGGGGAAAGUAUUAUGUUACGCCGUUCGGAUCUGCACUUCCA | 1.46
CCUGUGCUACACAUCGUAUGUACCGAAUCGGGGUGGGGUUUUUUUGGGGAAAAAAAGGGGAAAGUAUUAUGUUACGCCGUUCGGAUCUGC | 0.182
UCCUGUGCUACACAUCGUAUGUACCGAAUCGGGAAAAAAAGGGUUUUUUUGGGAAAGGGAAAGUAUUAUGUUACGCCGUUCGGAUCUGCA | -0.523
CAAGUCCUGUGCUACACAUCGUAUGUACCGAAUCGGAAAGGUUUUUGGAAAAAGGAAAGUAUUAUGUUACGCCGUUCGGAUCUGCACUUC | -1.19
GUCCUGUGCUACACAUCGUAUGUACCGAAUCGGGGAAAAGGGAAAAGGGGAAAAGGGGAAAGUAUUAUGUUACGCCGUUCGGAUCUGCAC | 0.384
UGGCCCUGGUGGCAUGCGGGGAGGAAGAGGUGGCCUCAUGGAUCGCGGUGGUCCCGGUGGAAUGUUCAGAGGUGGCCGUGGUGGAGACAG | 0.241
AGUCCUGUGCUACACAUCGUAUGUACCGAAUCGGUUUUUUUGGAAAGGAAAAAAAGGAAAGUAUUAUGUUACGCCGUUCGGAUCUGCACU | -1.46
CUCAAGUCCUGUGCUACACAUCGUAUGUACCGAAUCGGGCGGGGCGGGCGGGGAAAGUAUUAUGUUACGCCGUUCGGAUCUGCACUUCCA | 1.35

Sample 2
Target: Interferon regulatory factor 3, full length, phosphomimetic (IRF3, Homo sapiens, UniProt Q14653, residues 1-427, S386D/S396D/S398D/S402D/T404D/S405D)
Technique: protein-binding microarray
Molecule type: double-stranded DNA, one strand shown
Sample: in vitro
Tested at: 2540 nM top
Notes: 60-bp whole probe
With: salmon DNA 0.4 mg/ml
Relative to: random background probes
Reading: higher = stronger binding
Constant ends, left off below: GCCTAGCAC … GTCTTGATTCGCTTGACGCTGCTG
Residues (chain): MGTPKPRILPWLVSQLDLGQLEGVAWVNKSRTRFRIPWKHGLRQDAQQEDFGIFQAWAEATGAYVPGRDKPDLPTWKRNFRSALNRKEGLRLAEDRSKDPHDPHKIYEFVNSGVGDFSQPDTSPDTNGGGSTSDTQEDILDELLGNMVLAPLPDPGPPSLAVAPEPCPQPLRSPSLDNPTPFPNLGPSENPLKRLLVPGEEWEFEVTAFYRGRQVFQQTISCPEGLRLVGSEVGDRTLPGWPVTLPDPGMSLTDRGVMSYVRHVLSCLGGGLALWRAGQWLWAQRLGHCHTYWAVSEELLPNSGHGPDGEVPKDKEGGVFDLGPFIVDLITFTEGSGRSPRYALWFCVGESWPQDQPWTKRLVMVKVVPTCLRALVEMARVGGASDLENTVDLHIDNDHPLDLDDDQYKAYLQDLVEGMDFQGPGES
Oligonucleotide | fitted relative affinity
TTATGACTGCTACTGCTTTAGTGCTAG | -0.496 z-score
TTAGAACTGAATCTCGATTAGTGCTAG | 0.122 z-score
TTAGGTCTCCTACTGTTTTAGTGCTAG | 0.716 z-score
GACGGTTTCGGATTGGGGACGTGCTAG | 5.85 z-score
TTAGGACTGCTTATCCTTTAGTGCTAG | -0.212 z-score
TTAGATCTAAGTTTCGATTAGTGCTAG | 2.97 z-score
TTAGGTTTCCTTTCCCATTAGTGCTAG | 11 z-score
GCCGAACTGGGGTATCGAGACGTGCTA | 0.629 z-score
CTCTAACTCAAGATTCCTCTCGTGCTA | -0.0321 z-score
TTATATACCTGTATATCTTCGTGCTAG | 0.351 z-score
TCGGTGATCAGTCTGATGGTGTGCTAG | -0.658 z-score
TTAGGACTGCTTCTCCTATAGTGCTAG | -0.133 z-score
TTAGGTTACCTTATCCTTTAGTGCTAG | 4.4 z-score
GAGGATTTCAGTATCGAGACGTGCTAG | 1.29 z-score
GGCGGTTTCGACTATCGGGACGTGCTA | 2.82 z-score
TTTCATTTTTTTTTTCATCAGTGCTAG | 4.78 z-score
TTAGGACTGCACACTGGGTTAGTGCTA | -0.786 z-score
TTAGGTCTCGTTTTCGGTTAGTGCTAG | 3.22 z-score
TTAGGTATCGGGTGTCGGTTAGTGCTA | 1.04 z-score
TCAAGTTTTAATAACACACTGTGCTAG | 0.102 z-score
CAGAAGTTCATGTTCAACCAGTGCTAG | -0.0955 z-score
CCCACTTTCACTTCTCCCTTGTGCTAG | 5.09 z-score
TCATTCCTCTTTCTTTGACTGTGCTAG | 2.63 z-score
TCAGGACTGACTCTTCAGACTGTGCTA | -0.39 z-score
GACGGTTTCGGGACTGTGGACGTGCTA | 4.7 z-score

Sample 3
Target: Sal-like protein 4, full length isoform B (SALL4, Homo sapiens, UniProt Q9UJQ4-2, residues 1-616)
Technique: universal PBM
Molecule type: double-stranded DNA, one strand shown
Sample: in vitro
Tested at: not given
Notes: 8-mer, flanks averaged, mean of replicates
Reading: higher = stronger binding
Oligonucleotide | E-score
AGGACGCC | -0.265
GAGACTGA | -0.0844
AGGGCCGG | -0.311
GAATACAC | 0.158
CCATAAAG | 0.11
AATGCAGT | -0.00258
GGAAAACC | -0.152
AGGTGCAT | 0.00626
ACGCAGTA | -0.141
GTCGGCAA | -0.308
AGGGACGA | -0.155
TCGAACGA | -0.0583
GCACTTCA | 0.0525
ACACAATG | 0.216
ACCGGGGA | -0.414
CTCGCAGA | -0.211
ATAGGGGA | 0.0713
AGTAATCC | 0.161
AACGCTTA | 0.0197
ACCACCTC | -0.0849
CCCCCGAA | -0.00517
GTGTTCGA | -0.0863
CCTTGAAG | 0.0148

Sample 4
Target: RNA binding protein fox-1 homolog 2, RRM domain, GST-SBP tag (RBFOX2, Homo sapiens, UniProt O43251-10, residues 100-194)
Technique: RNA Bind-n-Seq
Molecule type: RNA
Sample: in vitro
Tested at: 365 nM
Notes: natural RNA segment, single round, ends assumed
Relative to: no-protein control
Reading: higher = stronger binding
Constant ends, left off below: GGGAGUUCUACAGUCCGACGAUC … UGGAAUUCUCGGGUGCCAA
Target sequence (chain): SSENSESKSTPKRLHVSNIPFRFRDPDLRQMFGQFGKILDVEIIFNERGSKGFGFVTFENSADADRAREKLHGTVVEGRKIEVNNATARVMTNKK
Oligonucleotide | RBNS enrichment (R)
UUGAGGCUCCCCUGGGAACUAGAGCCAGGAACAGCCAGUGGCACUGACAAGGGGACGGAGUCCAAGGCGUUAUUGGGCCACCUGACAGCUGGACAGAAAAGGGGCAGACA | 0.345
CAAGUGGGUCUGGGCAGCUUCCCCUGAGCUUACGUUUUGUUUUGUUUUGUUUUUUCGAUGUGAAUAGAGAACUCGGACAUUUUGCUGCUAAACAAUCUCCCCUCCCUCAC | 0.713
GCUUUUCCUUUUAGGUUUAAGUCCUGUCUGUCUGUAAGGCGUAGAAUCUGUCCGUCUGUAAGGCGUAGAAUGAGGGUUGUUAAUCCAUCACAAGCAAAAGGUCAGAACAG | 0.89
CACUUCCAAAAAGCUGGCAAAGCGUAACGCAGCAGCUAAGAUGCUCCUUCGAGUGCACACUGUACCUCUGGAUGCCCGGGAUGGCAAUGAGGCAGAGCCUGAUGACGAUC | 0.512
AGUGACAGGGGCCCCAACUUAGCAUCCCUUCCCUUCCGUUAGGAAGGAGAUGACCGGAAGCAACCCCUUCACAGACACGAGCACAUCGGCAAACCCUAUGAAAGUGGAAU | 0.281
CUCCUUGUAAGAGCUUCAACCCAAGUCCUCCAAUUCACAUUAAGGAAUCCAUACUAAAGGGGGACUUGAGGGUGUGUACCCUACAGGCCAGCCUUCCACAUCGUGUCAGU | 0.295
UGCAUCACCUCUUCUCAUCAGUGGUCAGGAGAAGUGCAGCUAGAAAGUGGCCCACACAAGCCGUCUGAUUUGUCCUCCCACAUAAUGGCAGGCACAGGCCAUGGCACUGG | 0.263
CUGUCUAUCCUAAAAGUAGAUUAGAAAGCCUUUUUUAUUUAUCAUGUUGAAUUUUAUUGACUUAAUUGGUCUGUAGAUAUGAAAGCAUCUUCUAAGGAGUUUUAGAUUUA | 0.583
GGGCUACUGUGGUUUAGACACUCCUGCUGCUCACAUUGAUGGGUGGCUAUUAAAGUUUCUUCACCCCUCUGUCUGCCUCUAGCCUGUUUCCCUUGGCCUGGGCAGCCUAU | 0.377
AAAUCUUCAAAUAUUGUCUACUGUGUAAGGCAGAAAAAUUUCUUAUCAUGCAAAAACCAUUUUGUUUCCAGGGUAACAAGUAACUAAGUGCAUGCACAACUUGUUUUCCC | 5.16
UCAGCCUUCUCCAAGGGAGAGCCUGGCUGGCUAACAGAGGGAGCCUGAGUCAGUCACAUCUGGCAGCUGGCAGCAAGCUCUUCAUCCCUCCACAGUGAGGAAGCUGGCAG | 0.282
UGAAUGGCGCCUCCCCACCUCAUUUCUGGAGUUGCAAUGGUCUCAACUCCCAUCUGAGGUGGGUACCACCCCUUCCUCAGUACCCACCGUGGAUACUGCAUGUGAACUAU | 1.26

Excerpt of the above (sample 1):
Oligonucleotide | log2 enrichment
UGGGAGACGAUCGCGAUGAACACGGUGCUGUCGCGGGCGAACUCACUGUUCGCCUUCUCGCUGAGCGUGAUGGCGGCGCUCACCUUCGGC | -1.84
UCAAGUCCUGUGCUACACAUCGUAUGUACCGAAUCGGAGGAAAAAGGAAAAAGGAAAGUAUUAUGUUACGCCGUUCGGAUCUGCACUUCC | -1.05
AAGUCCUGUGCUACACAUCGUAUGUACCGAAUCGGGGAGGGGUGGGGUUUUUGGGGAAAGUAUUAUGUUACGCCGUUCGGAUCUGCACUU | 0.415
GUCCUGUGCUACACAUCGUAUGUACCGAAUCGGGGUUUUGGGGUUUUGGGUUUUGGGGAAAGUAUUAUGUUACGCCGUUCGGAUCUGCAC | 0.234
CCUCAAGUCCUGUGCUACACAUCGUAUGUACCGAAUCGGAGGGGAGGGAGGGGAAAGUAUUAUGUUACGCCGUUCGGAUCUGCACUUCCA | 1.46
CCUGUGCUACACAUCGUAUGUACCGAAUCGGGGUGGGGUUUUUUUGGGGAAAAAAAGGGGAAAGUAUUAUGUUACGCCGUUCGGAUCUGC | 0.182
UCCUGUGCUACACAUCGUAUGUACCGAAUCGGGAAAAAAAGGGUUUUUUUGGGAAAGGGAAAGUAUUAUGUUACGCCGUUCGGAUCUGCA | -0.523
